Measured values gathered from unrelated publications.
Each numbered part is a random draw from the data of one study; scales do not carry over between parts. Changes are numbered by the printed parent chain.

Block 1 — technique: universal PBM; form: double-stranded DNA, one strand shown; sample: in vitro; concentration: not given; reading: higher = stronger binding; measurement: E-score
Target: Sal-like protein 4, full length isoform B (SALL4, Homo sapiens, UniProt Q9UJQ4-2, residues 1-616)
Notes: 8-mer, flanks averaged, mean of replicates
Construct (chain): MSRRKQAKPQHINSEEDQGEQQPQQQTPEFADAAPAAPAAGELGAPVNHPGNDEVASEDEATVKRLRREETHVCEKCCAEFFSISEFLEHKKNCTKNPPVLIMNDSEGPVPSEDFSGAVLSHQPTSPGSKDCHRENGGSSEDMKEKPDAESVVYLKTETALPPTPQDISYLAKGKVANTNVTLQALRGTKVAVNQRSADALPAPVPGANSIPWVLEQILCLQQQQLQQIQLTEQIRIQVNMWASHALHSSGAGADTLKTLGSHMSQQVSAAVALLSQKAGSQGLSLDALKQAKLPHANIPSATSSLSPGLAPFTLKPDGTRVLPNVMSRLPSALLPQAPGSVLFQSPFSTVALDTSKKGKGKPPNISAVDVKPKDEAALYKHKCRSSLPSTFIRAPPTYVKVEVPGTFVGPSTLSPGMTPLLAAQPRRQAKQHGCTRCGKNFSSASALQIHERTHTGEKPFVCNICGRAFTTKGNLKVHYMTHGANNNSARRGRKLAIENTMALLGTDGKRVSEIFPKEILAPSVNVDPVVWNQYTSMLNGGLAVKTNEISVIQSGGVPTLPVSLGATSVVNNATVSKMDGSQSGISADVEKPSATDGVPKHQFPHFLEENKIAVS
GGGGCTAC: -0.269
CTCATGAG: -0.0331
ACATGCCT: -0.00805
CCTCAGCC: -0.189
CTGCTGTA: 0.0163
AAGTACGA: 0.228
GGGTTACC: -0.322
CTTTAGAA: 0.231
CCCTACGG: -0.149
ACGGGTTG: -0.194
CACGGCTG: -0.248
AGGGGGTA: -0.0586
ACCCATTC: -0.0202
AGATTGGG: 0.121
AGCCGCTA: -0.217
AACCTTAG: 0.0473
AAAACCGG: -0.208
CCTTCCAA: -0.0322
ACTCGCAG: -0.124
ACCCCTAT: -0.0736
CTAAATAA: 0.286

Block 2 — technique: RNA Bind-n-Seq; form: RNA; sample: in vitro; concentration: 365 nM; reference: no-protein control; reading: higher = stronger binding; measurement: RBNS enrichment (R)
Target: RNA binding protein fox-1 homolog 2, RRM domain, GST-SBP tag (RBFOX2, Homo sapiens, UniProt O43251-10, residues 100-194)
Notes: natural RNA segment, single round, ends assumed
Shared flanks, not repeated: GGGAGUUCUACAGUCCGACGAUC … UGGAAUUCUCGGGUGCCAA
Residues (chain): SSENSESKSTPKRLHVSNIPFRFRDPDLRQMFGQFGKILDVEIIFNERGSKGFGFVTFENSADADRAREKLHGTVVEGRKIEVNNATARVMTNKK
UGGGUAAUGAGCAAAACCGAAAGCUCGGUGUGACUCAGUUUCCUCACUCCCAUUUUGCUUUAAUUUCACUUCCUUCACCAAUUUUCCGAUUGCAUUUAUUAAGCAUCUUU: 2.02
GGGCUCUGCCCGUCCUGUUCUGCCCAUGGCCCAGCCCGGCCGCUCCUGCUGACCCCUCCUGGACGGGCUGGAGCUGGGCUCCUGCCUUUGCUGCUAACACUGGAGGCGGU: 0.331
CGCCAUCUCCCGUGAGGCUUACAGAUUUCAAUAUUGGGAACAACUCUAAUCCUCAAACUAAGCCACCGUUUGGACUGCUAGUGUCACAGUUCGGGUGUUCCAUUGCACCC: 0.536
AAUAAUUUUUCCCUAAUGAUACCACUUUUCUUUUCCCCCUGUACCUAUGGGACUUCCAGAAAGAAGUUAAAUUGAGUAAAAUCAUCAGAAACUGAAUCCAUGUAAGAAAA: 0.569
AGUGUGAUUUCCAACAAUUCUGCUCUGGUUAUUUCAUUGAAGACAUCUUUGCACAUGUGACCAUGCUGUGUUAGGGGCUGUGUUCCAGGGACUGGACUCGAAGCUAGAAC: 0.397
AUUAAAUAUUGGUUCAUUUUUUUUCCAUGUUGUGGAGACACCAAGAUGAACGCAGCAUGAAUCUCAUUUCCAUUUCUAAGCAGCUGGGUGGUGCGGCGAUUCUUUAGUUC: 1.8
CUUGUCACAGCUUCGUGGUGACCGUCCAUCCCUGGGCAGCAACAAAGAGAACUCCAGGCUCAGCAUUCUGUUGAGUAACUUGCUACCUGCUCGGCUUUCCACUCUGCCAG: 0.265
CUCCAAAGUAUUGUACAAAUAAGUGUGCAGUAUCUGUGAACUGAAUUCACCACAGACUUUAGCUUUCUGAGCAAGAGGAUUUUGCGUCAGAGAAAUGUCUGUCCAUUUUU: 0.482
AGAGACCCACUUUAUUCAGUUCUGUACAUAUGGGGACAUCGGCCCAAGCCCAGCCCACCUUAGCAUGUAUCACUCUGUGGAGAAUAAAGCACCCUGUGUACACAGCCAGA: 1.88
CCGUGGAAGGCCUAGACCCAGCAGAGACCCCUUGGUGGGUCUGCCAUGCCUGUGGGGAAACACUGCUUCAGAAAGCCUUCACCUACCCUCUGCCUCUAUUUCCCAGGACA: 1.26
CUCAAAUGCUUAAACUGCUGGCAACAUAUAAUAAAUGCAUGCUAUUCAAUGAAUUUCUGCCUAUGAGGCAUCUGGCCCCUGGUAGCCAGCUCUCCAGAAUUACUUGUAGG: 13.9
AAGGACCCCAUGUGCUAGCCAGAAAUAUACUGUCUCUUGAAGGAAAGCAGGAGCUCAGACUCUUAGAGCCAGCUGUGGCUUCGGACCCAAGGCCUGACCUAGGCUGCUAU: 0.319

Block 3 — target: CCNE2, cyclin fold, Cln2 fusion (human); technique: yeast growth competition, sequencing; sample: yeast; notes: weak parent motif; reference: not given; reading: higher = stronger binding; measurement: normalised enrichment score
Starting sequence: USP37 docking peptide (human); PSAKRSLGFLPQP
PSAKRSLGFLPQA [P13A]: 0.255
PAAKRSLGFLPQP [S2A]: 0.209
PSAKRSLGFAPQP [L10A]: -0.147
PSAKRSLAFLPQP [G8A]: 0.464
PSAKASLGFLPQP [R5A]: 0.162
ASAKRSLGFLPQP [P1A]: 0.112

Block 4 — technique: DHFR PCA, deep sequencing; sample: yeast; together with: (+)-ABA 0 µM; reference: wild-type fitted maximum; reading: higher = stronger binding; measurement: relative binding score
Target: ABI1, truncated, D143A, DHFR fusion (Arabidopsis thaliana)
Notes: methotrexate growth selection, single substitutions
Starting sequence: PYL1, truncated, DHFR fusion (Arabidopsis thaliana); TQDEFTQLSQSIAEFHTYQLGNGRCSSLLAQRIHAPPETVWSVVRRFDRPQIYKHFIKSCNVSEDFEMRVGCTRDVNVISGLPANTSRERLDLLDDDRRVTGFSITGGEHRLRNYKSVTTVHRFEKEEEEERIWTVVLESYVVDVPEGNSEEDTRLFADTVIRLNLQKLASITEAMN; partner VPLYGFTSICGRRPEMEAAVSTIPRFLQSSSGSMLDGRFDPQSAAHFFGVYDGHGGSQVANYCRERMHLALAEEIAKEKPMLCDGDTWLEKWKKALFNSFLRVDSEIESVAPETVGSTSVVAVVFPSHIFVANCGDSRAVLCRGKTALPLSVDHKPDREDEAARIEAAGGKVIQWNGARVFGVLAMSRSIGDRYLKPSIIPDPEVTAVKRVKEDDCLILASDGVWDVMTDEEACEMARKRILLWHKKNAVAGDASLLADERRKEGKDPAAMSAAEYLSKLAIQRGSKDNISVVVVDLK
W41I: 4.38%
V44I: 5.76%
N114D: 7.04%
E139F: -13.8%
V43C: 3.68%
G71W: 2.22%
W41N: -9.17%
C25N: 2.61%
D95Q: 18.6%
V62I: 15.6%
D95C: -5.09%
T39H: 7.86%
E128W: 7.61%
V121Q: 1.11%
D95T: -3.6%
L93M: 20.1%
Q167I: -3.32%
P146Q: 22.7%
V40C: -2.52%
E130P: 58.5%
V161F: 16.5%
F157L: 3.52%

Block 5 — technique: protein binding microarray; form: double-stranded DNA, one strand shown; sample: in vitro; concentration: not given; reference: not given; reading: higher = stronger binding; measurement: E-score
Target: Histone acetyltransferase KAT6A, winged helix 1, GST fusion (KAT6A, Homo sapiens, UniProt Q92794, residues 1-85)
Notes: 8-mer, flanks averaged, mean of 2 arrays, mostly near background
Construct (chain): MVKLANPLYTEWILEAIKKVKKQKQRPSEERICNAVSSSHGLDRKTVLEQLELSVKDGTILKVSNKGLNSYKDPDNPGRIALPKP
CTCGCGGA: 0.184
CTACGGGA: 0.316
ACTACCTC: -0.167
ATCAATCG: -0.0644
CGATATTC: 0.136
ATCTCAAA: -0.0729
AATCAATA: -0.137
AACTATGG: -0.0463
CCAGTTGC: -0.159
ACGAATAG: -0.11
AGATGGAA: -0.205
GGAACGTA: 0.0431
CATTTGCC: 0.0184
GGACACCC: 0.0351
AGAGCTTG: -0.159
ATACAAAT: -0.138
ATGGGGTC: -0.046
CGGGACCG: 0.408
CGGTGAAC: 0.0948
CCAGTGTC: -0.0577
GGCATCCA: -0.141
CTCGAAGC: -0.00784
CGTCAGGC: 0.103
ATAAATAT: -0.0787
AGTCCGGG: 0.159

Block 6 — technique: EMSA with sequencing; form: double-stranded DNA, one strand shown; sample: in vitro; concentration: 10 and 20 nM; reference: negative control set to 0; reading: higher = stronger binding; measurement: normalised bound fraction
Target: Hepatocyte nuclear factor 3-alpha (Foxa1, Mus musculus, UniProt P35582, residues 1-468, full length assumed)
Chain of UniProt P35582 (whole entry, looked up): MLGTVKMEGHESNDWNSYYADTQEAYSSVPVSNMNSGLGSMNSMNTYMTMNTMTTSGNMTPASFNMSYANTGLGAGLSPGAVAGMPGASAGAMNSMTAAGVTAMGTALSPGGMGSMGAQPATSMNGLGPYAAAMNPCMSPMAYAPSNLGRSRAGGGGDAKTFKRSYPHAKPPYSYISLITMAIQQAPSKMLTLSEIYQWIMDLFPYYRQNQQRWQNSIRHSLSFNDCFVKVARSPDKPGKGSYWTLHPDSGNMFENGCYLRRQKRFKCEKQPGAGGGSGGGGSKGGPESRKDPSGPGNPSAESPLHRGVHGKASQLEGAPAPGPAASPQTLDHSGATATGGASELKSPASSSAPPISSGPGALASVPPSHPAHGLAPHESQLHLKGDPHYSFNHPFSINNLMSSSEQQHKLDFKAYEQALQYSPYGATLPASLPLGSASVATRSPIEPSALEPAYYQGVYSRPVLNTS
Notes: whole designed probe, mean of two concentrations, ends assumed
Shared flanks, not repeated: GTGAGCGGTGCCCATTGATGGGGAAC … TTTCACTGGGATCGTGGGGAC
ATACACTTCATTATGTCACTGTTGTTTGGTTGTGTTCTAGGCGAGAAACCACCTTTGGAAGGTTCACAGCAGCCCCAATTTAGCACTCTGCCATGTTTACATTGTCAGGCTGCATTGCCACTTCGGCGAACCATAGCTTTTTATCATCCCAGCCAGGGTGGCTGTGGGCAGCTTCTGCCTGGCAGGTAATAAG: 0.394 ratio
GGTGTGACATATTCTCACTGCTATATATCAAAGCGTTAATGGTGGAATTTTGTCTTTGTAAAGCATTTGGAGTTATTTTCGAGAAAAGCGCTGTGTAATCTAGGAATTTATTTTAAGAACAACTCCATGTTTGTTGAGATACTTGTTTAGTTATTATGGCTTGGTCTAGTATCTGAAAATAGAATCAAAGTAA: 0.0606 ratio
AACTAACCCAGTCCCAGGAGAACTGCATTAATCCCTTTGTGAGGGCGAAGTCCCTATGACTCACCTCTTAAAGGTCCTATTACCTCTCCATACAGATGACATTGGCAATTAAATTTCAACATGAGTTTTGGTAGAGACAAACCACATCCAAACCATAGCAATAGTAAAGGTGTCCCCTGCTCCCCTCCTCCAC: -0.0682 ratio
TTAAAAAGCACATATGCTGCTTGCATCACTATTTGATCCTTAACAGTCTAGGGACACGTTGCCATTTTCAAAGTAATACCATTTCCCATTCCTATGTTTACTTTGTACATGAAGTATAGTGGTCAACTGCCATGGGTCCATAAAGACTGGGTATTACAGTAAGATCATACACATAAGGACTTCTTCCAGGACA: 0.484 ratio
TTTAATTTTGCCCTATGTAAACTTGCTCAGCTGTAAACAAACAAGCCATCATGGAGACTAGATCAAATAATAAGCTCGTTGACTCCACGCTAGAGTAAACAAGGACATCAGAGTAAGTCATAGCCCTACAGATGTTAGACAAAAGGAAGGATTTTTACGTCTTTATTGATGTAAATTACATACTGTAGGAGTC: 0.477 ratio
GGCCATAAATACATATTCATATACATTTGACTAAATGCCACATATGCTTTAACATTTTCTTTTAAGAAAATGTAACACTTTGAAGATTCAGTGTAATCTTCCAAATAGTAAACTAAATGATTTCCTTAGCTCCTTGACATATCCTAGAGTATCTATTTTAGTTTATAAATATGATTTTAAAAAATTAGGTACA: 0.0594 ratio
TTCTCCTTCACTCTCCCTGGTACAACTTGGCAGAGGATGGGGAGAACTGGGAAGAAGTGGATGCATTGAGTAGATCAAGCTTTTCCTCTTCATGTTTACTTTATATGATTTTAATTTTGTAACCTTGTTGTAGGACATAAAAAATGAATGACAGTGGACTTAGCTTTTATTTATAACATTGAAATCCTTAAAG: 0.418 ratio
ATGAAAAAGGATAGGAAGAAAGGGAGGAAGAGGAGGGGGACAGAGAGGAAGTAGGAAGGGAGAGCGATAAAGGAAGGAAAGAAGATAAATTCTGTAAACAGCCCCACCCAGACTGGCATAGCACAACCTGGAATGGACTATTTAAGTCCCAAACATGATGTTAAGAGAATAATTCAGATTTCTAGGAATGCAC: -0.00852 ratio

Repeated from above (block 5):
GGCATCCA: -0.141
AACTATGG: -0.0463
CTCGCGGA: 0.184
ATCAATCG: -0.0644
AATCAATA: -0.137
ATCTCAAA: -0.0729
CGGTGAAC: 0.0948
CTCGAAGC: -0.00784
ACTACCTC: -0.167
CGTCAGGC: 0.103
CTACGGGA: 0.316
CCAGTGTC: -0.0577
